# Published values pooled from the literature.
# Numbers after ± are the reported error.
Compound,test,system,setting,scale,measurement,value
O=C1CC[C@H](N2Cc3cc(N4CCNCC4)ccc3C2=O)C(=O)N1,,"male Sprague-Dawley rat, faeces","oral, 20 mg/kg, 0-168 h",baseline: dose,fecal excretion,4.76%
Cc1ccccc1-c1ccc(-c2nc(-c3ccc(CN(C)CCCC(=O)O)c([18F])c3)no2)cc1C(F)(F)F,,"rat, bone",30 min,,tracer uptake,0.11 %ID/g
N=C(N)NCCC[C@H](NC(=O)[C@H](CCCNC(=N)N)NC(=O)[C@H](CCCNC(=N)N)NC(=O)[C@H](CCC(N)=O)NC(=O)[C@H](CCCNC(=N)N)NC(=O)[C@H](CCCNC(=N)N)NC(=O)[C@H](CCCCN)NC(=O)[C@H](CCCCN)NC(=O)[C@H](CCCNC(=N)N)NC(=O)CNC(=O)[C@H](Cc1ccc(O)cc1)NC(=O)[C@H](Cc1ccccc1)NC(=O)[C@H](Cc1ccccc1)NC(=O)[C@H](Cc1ccccc1)NC(=O)OCC1c2ccccc2-c2ccccc21)C(=O)O,,C57BL/6 mice,"intraperitoneal, 10 mg/kg, 12 h",direction not given,health score,5
O=C(c1cc(Cc2n[nH]c(=O)c3ccccc23)ccc1F)N1CC(CNC2CC2)C1,,"Wistar Han rat, female, blood","oral, 15 mg/kg daily, 4 weeks",,haematocrit,45.7 ± 2.5%
CC[C@H](C)[C@H](NC(=O)[C@H](Cc1ccc(O)cc1)NC(=O)[C@@H](NC(=O)[C@H](CCCNC(=N)N)NC(=O)[C@@H](N)CC(=O)O)C(C)C)C(=O)N[C@@H](Cc1c[nH]cn1)C(=O)N1CCC[C@H]1C(=O)O,LC-MS/MS,"Beagle dog both sexes, plasma","subcutaneous, 10 mg/kg/day, day 0, noncompartmental",,Cmax,1150 ± 489 ng/mL
CCN(Cc1ccccc1)C(=O)CCc1nc(CN2CCN(C(=O)Cc3ccc(OC)c(OC)c3)CC2)no1,rotarod test,"mouse, CCI neuropathic pain model",1 mg/kg,,time to fall,1.57 ± 0.15 min
O=C1NC2(CC2)COc2ncc(F)cc2[C@H]2COCCN2c2ccn3ncc1c3n2,,"Sprague-Dawley rat, female, blood","oral, 10 mg/kg/day, 4 weeks, end of recovery, subacute toxicity",,monocyte percentage,1.9 ± 0.7%
CC(C)C[C@@H](NC(=O)[C@@H](CCCNC(=N)N)NC(=O)[C@@H](Cc1c[nH]cn1)NC(=O)[C@@H](Cc1c[nH]c2ccccc12)NC(=O)[C@@H](Cc1c[nH]cn1)NC(=O)[C@@H](Cc1ccccc1)NC(=O)[C@H](NC(=O)[C@@H](Cc1ccc(O)cc1)NC(=O)CNC(=O)CNC(=O)CCOCCOCCOCCNC(=O)CN1CCN(CC(=O)O)CCN(CC(=O)O)CC1)[C@H](C)O)C(=O)N[C@H](CC(N)=O)C(=O)N1CCC[C@@H]1C(=O)O [gallium-68 labelled],,"C57BL/6 mice, male","intravenous, 1.85 MBq, 120 min",baseline: tumour over blood,tissue ratio,5.69 ± 1.27
CCCC[C@@H]1NC(=O)[C@H](Cc2ccc(O)cc2)NC(=O)[C@@H]2CCCN2C(=O)[C@H](CC(=O)O)NC(=O)[C@H](C)NC(=O)[C@H](Cc2ccccc2)NC(=O)[C@@H]2CSCCC(=O)N3CN(CN(C3)C(=O)CCSC[C@@H](C(=O)N[C@@H](C)C(N)=O)NC1=O)C(=O)CCSC[C@H](NC(C)=O)C(=O)N[C@@H](CC(C)(C)C)C(=O)N1CCC[C@H]1C(=O)N[C@@H](CCC(=O)O)C(=O)N[C@H](CCCCNC(=O)CCc1cn(CCOCCOCCOCCN(CCOCCOCCOCCC(=O)N[C@H]3CSCCC(=O)N4CN5CN(C4)C(=O)CCSC[C@H](NC(=O)[C@@H](CC(=O)O)NC(=O)[C@H](Cc4cccc6ccccc46)NC(=O)[C@@H]4CCCN4C3=O)C(=O)N[C@@H](CCSC)C(=O)N[C@@H](CCCCNC(=N)N)C(=O)N[C@@H](CC(=O)O)C(=O)N[C@@H](Cc3c[nH]c4ccccc34)C(=O)N[C@@H](CO)C(=O)N[C@@H]([C@@H](C)O)C(=O)N3CCC[C@H]3C(=O)N3C[C@H](O)C[C@H]3C(=O)N[C@@H](Cc3c[nH]c4ccccc34)C(=O)N[C@H](C(N)=O)CSCCC5=O)CCOCCOCCOCCn3cc(CCC(=O)NCCCC[C@H]4NC(=O)[C@H](CCC(=O)O)NC(=O)[C@@H]5CCCN5C(=O)[C@H](CC(C)(C)C)NC(=O)[C@@H](NC(C)=O)CSCCC(=O)N5CN6CN(C5)C(=O)CCSC[C@H](NC(=O)[C@H](Cc5ccc(O)cc5)NC(=O)[C@@H]5CCCN5C4=O)C(=O)N[C@@H](Cc4ccccc4)C(=O)N[C@@H](C)C(=O)N[C@@H](CC(=O)O)C(=O)N4CCC[C@H]4C(=O)N[C@@H](Cc4ccc(O)cc4)C(=O)N[C@@H](CCCC)C(=O)N[C@H](C(=O)N[C@@H](C)C(N)=O)CSCCC6=O)nn3)nn1)C(=O)N1CCC[C@H]1C(=O)N[C@@H](Cc1ccc(O)cc1)C(=O)N2,,cynomolgus monkey,,,CL,4 ± 0.8 mL/min/kg
CS(=O)(=O)c1cc(Cl)cc(-c2cc(Cl)c(Cl)cc2Cl)c1Cl,ultrafiltration,cow milk whey,500 nM nominal in whole milk,,dose fraction in permeate,41.1%
CC(C)[C@@H]1NC(=O)CNC(=O)[C@H](CC(N)=O)NC(=O)[C@H](CCCNC(=N)N)NC(=O)[C@H](Cc2ccc(O)cc2)NC(=O)[C@H](C(C)C)NC(=O)[C@@H](NC(=O)[C@@H](NC(=O)[C@H](CC(N)=O)NC(=O)[C@H](Cc2c[nH]c3ccccc23)NC(=O)[C@H](C)NC(=O)[C@H](Cc2ccccc2)NC(=O)CNC(=O)[C@H](CCCCN)NC(=O)[C@H](Cc2ccccc2)NC(=O)[C@H](Cc2ccccc2)NC(=O)[C@H](CCCCN)NC(=O)OCC2c3ccccc3-c3ccccc32)C(C)C)CSSC[C@@H](C(=O)N[C@@H](Cc2c[nH]cn2)C(=O)N[C@@H](CCCNC(=N)N)C(=O)N[C@@H](CCCNC(=N)N)C(=O)N[C@@H](C)C(=O)N[C@@H](CC(N)=O)C(N)=O)NC(=O)[C@H](C(C)C)NC(=O)[C@H](CCCNC(=N)N)NC1=O,,ICR mouse,"ip, 10 mg/kg",direction not given,breathing score,0
CCCCCCCCCCCCCCCC(=O)N[C@@H](CCC(=O)NCCOCCOCCC(=O)NCCOCCOCCC(=O)NCCCC[C@H](NC(=O)[C@H](CC(=O)O)NC(=O)[C@H](CC(C)C)NC(=O)[C@H](Cc1ccc(O)cc1)NC(=O)[C@H](CCCCN)NC(=O)[C@H](CO)NC(=O)[C@H](Cc1ccc(O)cc1)NC(=O)[C@H](CC(=O)O)NC(=O)[C@H](CO)NC(=O)[C@@H](NC(=O)[C@H](Cc1ccccc1)NC(=O)[C@@H](NC(=O)CNC(=O)[C@H](CCC(N)=O)NC(=O)[C@@H](CO)NC(=O)[C@@H](N)Cc1c[nH]cn1)[C@@H](C)O)[C@@H](C)O)C(=O)N[C@@H](CCCNC(=N)N)C(=O)N[C@@H](CCCNC(=N)N)C(=O)N[C@@H](C)C(=O)N[C@@H](CCC(N)=O)C(=O)N[C@@H](CC(=O)O)C(=O)N[C@@H](Cc1ccccc1)C(=O)N[C@H](C(=O)N[C@@H](CCC(N)=O)C(=O)N[C@@H](Cc1c[nH]c2ccccc12)C(=O)N[C@@H](CC(C)C)C(=O)N[C@@H](CC(C)C)C(=O)N[C@@H](CC(N)=O)C(=O)N[C@H](C(=O)NCC(=O)NCC(=O)N1CCC[C@H]1C(=O)N[C@@H](CO)C(=O)N[C@@H](CO)C(=O)NCC(=O)N[C@@H](C)C(=O)N1CCC[C@H]1C(=O)N1CCC[C@H]1C(=O)N1CCC[C@H]1C(=O)N[C@@H](CO)C(N)=O)[C@@H](C)O)C(C)C)C(=O)O,,"rhesus monkey, both sexes, plasma","subcutaneous, 20 µg/kg, multiple doses, day 1",,AUC(0-inf),68.3 ± 17.6 ng·h/mL
COc1cccc2c1C(=O)c1c(O)c3c(c(O)c1C2=O)CC(O)(C(=O)CO)CC3OC1CC(NC(=O)OC2C=CCCC(C)(C(=O)NCC(=O)O)CC2)C(O)C(C)O1 (stereo not shown),,"Sprague Dawley rats male, plasma","intravenous, 21.5 mg/kg/day doxorubicin equivalent, day 5",,Cmax,2520 ± 548 ng/mL

# Excerpt of the above:
Compound,test,system,setting,scale,measurement,value
CC(C)[C@@H]1NC(=O)CNC(=O)[C@H](CC(N)=O)NC(=O)[C@H](CCCNC(=N)N)NC(=O)[C@H](Cc2ccc(O)cc2)NC(=O)[C@H](C(C)C)NC(=O)[C@@H](NC(=O)[C@@H](NC(=O)[C@H](CC(N)=O)NC(=O)[C@H](Cc2c[nH]c3ccccc23)NC(=O)[C@H](C)NC(=O)[C@H](Cc2ccccc2)NC(=O)CNC(=O)[C@H](CCCCN)NC(=O)[C@H](Cc2ccccc2)NC(=O)[C@H](Cc2ccccc2)NC(=O)[C@H](CCCCN)NC(=O)OCC2c3ccccc3-c3ccccc32)C(C)C)CSSC[C@@H](C(=O)N[C@@H](Cc2c[nH]cn2)C(=O)N[C@@H](CCCNC(=N)N)C(=O)N[C@@H](CCCNC(=N)N)C(=O)N[C@@H](C)C(=O)N[C@@H](CC(N)=O)C(N)=O)NC(=O)[C@H](C(C)C)NC(=O)[C@H](CCCNC(=N)N)NC1=O,,ICR mouse,"ip, 10 mg/kg",direction not given,breathing score,0
COc1cccc2c1C(=O)c1c(O)c3c(c(O)c1C2=O)CC(O)(C(=O)CO)CC3OC1CC(NC(=O)OC2C=CCCC(C)(C(=O)NCC(=O)O)CC2)C(O)C(C)O1 (stereo not shown),,"Sprague Dawley rats male, plasma","intravenous, 21.5 mg/kg/day doxorubicin equivalent, day 5",,Cmax,2520 ± 548 ng/mL
